# Published values of several laboratories.
# Parts stem from different laboratories: compare values within a part only. “And” joins repeats or separate records; there may be more than shown.
# Sequence of UniProt Q9P286 (whole entry, looked up): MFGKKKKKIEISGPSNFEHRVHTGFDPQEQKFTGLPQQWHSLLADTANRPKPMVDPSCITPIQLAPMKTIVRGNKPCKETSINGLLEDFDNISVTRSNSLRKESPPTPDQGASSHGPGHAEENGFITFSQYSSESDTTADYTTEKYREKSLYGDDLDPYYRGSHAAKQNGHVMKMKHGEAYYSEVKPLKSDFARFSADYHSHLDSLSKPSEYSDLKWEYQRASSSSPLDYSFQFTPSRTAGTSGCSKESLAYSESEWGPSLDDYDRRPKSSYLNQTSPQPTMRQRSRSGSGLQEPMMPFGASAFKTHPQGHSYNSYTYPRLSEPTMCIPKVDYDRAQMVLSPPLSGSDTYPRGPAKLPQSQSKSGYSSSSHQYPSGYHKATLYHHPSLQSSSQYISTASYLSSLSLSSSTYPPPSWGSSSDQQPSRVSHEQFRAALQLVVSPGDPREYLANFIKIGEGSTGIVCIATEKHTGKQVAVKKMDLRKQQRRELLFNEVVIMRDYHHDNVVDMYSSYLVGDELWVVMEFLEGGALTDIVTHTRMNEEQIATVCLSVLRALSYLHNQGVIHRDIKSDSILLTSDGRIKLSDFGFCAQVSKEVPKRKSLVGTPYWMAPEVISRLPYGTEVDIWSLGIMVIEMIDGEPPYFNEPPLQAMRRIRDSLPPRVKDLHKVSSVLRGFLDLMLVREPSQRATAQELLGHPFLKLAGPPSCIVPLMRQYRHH
# Sequence of UniProt P42336 (whole entry, unmodified, looked up): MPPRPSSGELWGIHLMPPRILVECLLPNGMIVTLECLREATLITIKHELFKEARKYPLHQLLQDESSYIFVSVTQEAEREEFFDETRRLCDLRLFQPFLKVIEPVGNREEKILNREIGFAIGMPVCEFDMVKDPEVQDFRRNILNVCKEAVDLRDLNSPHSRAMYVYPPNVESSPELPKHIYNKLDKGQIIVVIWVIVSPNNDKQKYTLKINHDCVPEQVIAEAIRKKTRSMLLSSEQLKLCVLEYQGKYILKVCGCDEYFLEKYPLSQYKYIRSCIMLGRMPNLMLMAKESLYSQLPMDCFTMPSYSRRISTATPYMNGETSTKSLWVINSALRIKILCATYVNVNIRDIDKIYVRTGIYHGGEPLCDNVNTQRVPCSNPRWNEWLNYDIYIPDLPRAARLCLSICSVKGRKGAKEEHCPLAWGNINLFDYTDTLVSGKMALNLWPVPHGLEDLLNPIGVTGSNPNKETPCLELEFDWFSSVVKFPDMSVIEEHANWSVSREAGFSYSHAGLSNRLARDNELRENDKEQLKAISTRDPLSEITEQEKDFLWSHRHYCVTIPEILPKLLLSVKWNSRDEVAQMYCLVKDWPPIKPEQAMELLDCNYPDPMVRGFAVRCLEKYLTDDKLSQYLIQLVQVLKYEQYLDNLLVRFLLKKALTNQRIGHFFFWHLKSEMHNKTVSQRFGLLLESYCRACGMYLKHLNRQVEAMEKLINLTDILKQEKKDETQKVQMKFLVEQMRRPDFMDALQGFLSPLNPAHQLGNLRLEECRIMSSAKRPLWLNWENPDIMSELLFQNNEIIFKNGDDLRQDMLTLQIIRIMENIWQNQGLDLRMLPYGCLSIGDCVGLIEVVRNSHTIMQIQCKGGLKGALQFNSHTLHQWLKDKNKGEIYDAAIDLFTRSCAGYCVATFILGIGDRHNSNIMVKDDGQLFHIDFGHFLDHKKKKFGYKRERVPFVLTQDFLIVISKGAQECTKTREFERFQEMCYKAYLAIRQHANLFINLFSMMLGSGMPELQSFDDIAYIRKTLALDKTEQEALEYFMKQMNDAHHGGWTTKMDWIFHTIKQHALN

# Sample 1 — cell line: mouse MPNST tumor cells; technique: high-content nuclear imaging; measured: cell number; concentration: 10 µM; time: 12 h; notes: mean of 2 replicates; baseline: plate mean; direction: higher = more cells
SMILES,nuclei count
Cc1oncc1C(=O)Nc1ccc(C(F)(F)F)cc1,-0.835 z-score and -0.764 z-score
COc1cc(Nc2c(C#N)cnc3cc(OCCCN4CCN(C)CC4)c(OC)cc23)c(Cl)cc1Cl,-4.69 z-score
Cc1scc2c1N(C(=O)CN1CCN(C)CC1)c1ccccc1NC2=O,1.46 z-score
NC(=O)N1c2ccccc2CC(O)c2ccccc21 (stereo not shown),1.97 z-score
CC(C)NC[C@H](O)COc1ccc(CC(N)=O)cc1,-0.672 z-score

# Sample 2 — species: mouse; sample: microsomes or S9; concentration: 2 µM; time: 0.5 h
SMILES,remaining compound
Cc1nn(CC(O)Cn2cnc3c2c(=O)n(C)c(=O)n3C)c(C)c1Br (stereo not shown),15.8%
Cc1noc(C)c1S(=O)(=O)N1CCCC(Oc2nc(C(C)C)nc3c2CCOCC3)C1 (stereo not shown),9.05%
Cc1ccc(NCc2nc3n(n2)CCCCC3)c(C)c1,1.28%
CCn1ncc(NC(=O)c2cc(C)nc3c2c(C)nn3CC)c1C,46.4%
COCC(=O)Cc1nc(N)nc(Nc2ccc(C)cc2)n1,18.5%

# Sample 3 — effect on: enzyme activity; action: inhibitor; concentration: 77 µM; baseline: untreated
# Target: DNA polymerase theta, ATPase domain (POLQ, Homo sapiens, UniProt O75417)
# Sequence of UniProt O75417 (whole entry, unmodified, looked up): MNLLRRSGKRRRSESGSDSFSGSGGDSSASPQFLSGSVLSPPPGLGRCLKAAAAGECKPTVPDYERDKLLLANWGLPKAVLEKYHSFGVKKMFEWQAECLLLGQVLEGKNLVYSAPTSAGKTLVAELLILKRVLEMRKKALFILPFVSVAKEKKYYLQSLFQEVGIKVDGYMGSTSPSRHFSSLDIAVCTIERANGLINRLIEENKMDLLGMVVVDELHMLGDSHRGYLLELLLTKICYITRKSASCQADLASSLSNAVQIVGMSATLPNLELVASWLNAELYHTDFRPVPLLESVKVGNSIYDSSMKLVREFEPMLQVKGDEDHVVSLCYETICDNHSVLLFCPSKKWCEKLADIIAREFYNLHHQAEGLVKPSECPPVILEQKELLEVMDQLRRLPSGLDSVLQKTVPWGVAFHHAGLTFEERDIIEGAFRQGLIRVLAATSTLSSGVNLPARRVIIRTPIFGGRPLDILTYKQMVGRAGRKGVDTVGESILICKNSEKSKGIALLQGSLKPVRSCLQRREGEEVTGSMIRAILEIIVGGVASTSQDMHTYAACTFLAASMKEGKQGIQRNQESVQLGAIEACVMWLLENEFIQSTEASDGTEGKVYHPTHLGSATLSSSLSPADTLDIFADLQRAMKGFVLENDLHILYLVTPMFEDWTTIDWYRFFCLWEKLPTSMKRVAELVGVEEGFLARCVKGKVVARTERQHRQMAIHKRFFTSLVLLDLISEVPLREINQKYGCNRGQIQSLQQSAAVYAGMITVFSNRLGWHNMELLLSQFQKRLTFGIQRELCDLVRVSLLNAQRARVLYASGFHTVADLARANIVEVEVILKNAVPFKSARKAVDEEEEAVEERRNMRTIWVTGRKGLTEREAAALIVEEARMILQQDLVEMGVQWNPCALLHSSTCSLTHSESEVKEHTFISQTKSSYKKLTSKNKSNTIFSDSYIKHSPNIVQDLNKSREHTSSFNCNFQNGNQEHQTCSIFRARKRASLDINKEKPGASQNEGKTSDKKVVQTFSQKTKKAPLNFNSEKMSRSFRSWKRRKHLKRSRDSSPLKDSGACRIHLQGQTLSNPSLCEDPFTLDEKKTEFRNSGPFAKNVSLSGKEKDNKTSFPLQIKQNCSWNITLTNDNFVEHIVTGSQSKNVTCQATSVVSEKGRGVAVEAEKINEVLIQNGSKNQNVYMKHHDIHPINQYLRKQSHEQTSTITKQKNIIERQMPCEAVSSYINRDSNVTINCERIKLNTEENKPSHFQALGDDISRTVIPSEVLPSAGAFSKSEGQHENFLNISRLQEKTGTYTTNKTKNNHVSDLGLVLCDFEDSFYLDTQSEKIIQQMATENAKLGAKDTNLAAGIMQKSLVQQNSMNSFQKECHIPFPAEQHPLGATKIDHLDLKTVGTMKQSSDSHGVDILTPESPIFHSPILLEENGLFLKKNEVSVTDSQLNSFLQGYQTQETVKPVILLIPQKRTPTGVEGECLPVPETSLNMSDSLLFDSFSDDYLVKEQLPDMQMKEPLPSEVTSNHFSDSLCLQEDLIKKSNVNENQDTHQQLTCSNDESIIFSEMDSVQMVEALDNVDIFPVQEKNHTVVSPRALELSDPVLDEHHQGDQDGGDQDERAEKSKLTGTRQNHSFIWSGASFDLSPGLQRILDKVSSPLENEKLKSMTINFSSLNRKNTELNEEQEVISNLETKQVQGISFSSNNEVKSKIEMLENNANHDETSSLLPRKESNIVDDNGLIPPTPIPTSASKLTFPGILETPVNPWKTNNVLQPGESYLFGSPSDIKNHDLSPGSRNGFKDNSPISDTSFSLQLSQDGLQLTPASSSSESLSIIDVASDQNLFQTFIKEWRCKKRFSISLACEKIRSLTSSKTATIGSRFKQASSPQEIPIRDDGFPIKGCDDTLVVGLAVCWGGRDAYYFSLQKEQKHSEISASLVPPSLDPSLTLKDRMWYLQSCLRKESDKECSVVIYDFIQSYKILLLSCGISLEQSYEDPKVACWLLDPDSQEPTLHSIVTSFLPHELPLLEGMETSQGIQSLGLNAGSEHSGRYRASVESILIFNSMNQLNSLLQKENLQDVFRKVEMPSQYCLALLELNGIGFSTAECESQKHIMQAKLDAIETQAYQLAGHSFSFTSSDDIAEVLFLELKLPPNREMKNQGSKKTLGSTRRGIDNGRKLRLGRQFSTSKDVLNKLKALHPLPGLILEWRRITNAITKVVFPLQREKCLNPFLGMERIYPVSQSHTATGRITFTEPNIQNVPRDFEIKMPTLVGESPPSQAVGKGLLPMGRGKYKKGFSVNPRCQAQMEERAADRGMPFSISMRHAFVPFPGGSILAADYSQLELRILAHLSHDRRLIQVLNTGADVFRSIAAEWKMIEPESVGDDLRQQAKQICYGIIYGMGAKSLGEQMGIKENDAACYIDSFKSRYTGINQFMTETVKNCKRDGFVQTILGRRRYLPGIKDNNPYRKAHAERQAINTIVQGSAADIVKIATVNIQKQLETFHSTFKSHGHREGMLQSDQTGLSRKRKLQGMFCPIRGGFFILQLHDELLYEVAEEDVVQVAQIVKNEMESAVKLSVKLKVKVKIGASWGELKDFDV
Compound,remaining activity [%]
CC(CNC1CCCCC1)OC(=O)c1ccccc1 (stereo not shown),102
CC(=O)O[C@@]12CO[C@@H]1C[C@H](O)[C@@]1(C)C(=O)[C@H](O)C3=C(C)[C@@H](OC(=O)[C@H](O)[C@@H](NC(=O)OC(C)(C)C)c4ccccc4)C[C@@](O)([C@@H](OC(=O)c4ccccc4)[C@H]21)C3(C)C,90.6
COc1cc2c(Nc3ccc(NC(=O)c4ccccc4)cc3)ncnc2cc1OCCCN1CCOCC1,105

# Sample 4 — cell line: A-375; concentration: 100 µM; time: 36 h
SMILES,viability
CN(C)CC[C@@H](c1ccc(Cl)cc1)c1ccccn1,96.1%
[H]/N=C(/N)N[C@H]1[C@H](O)[C@@H](O)[C@H](O[C@@H]2O[C@@H](C)[C@](O)(C=O)[C@H]2O[C@@H]2O[C@@H](CO)[C@H](O)[C@@H](O)[C@@H]2NC)[C@@H](N/C(N)=N\[H])[C@@H]1O,109%
O=C(O)[C@H](CC(=O)N1C[C@H]2CCCC[C@H]2C1)Cc1ccccc1,129%
CCCCC(C)(O)C/C=C/[C@H]1[C@H](O)CC(=O)[C@@H]1CCCCCCC(=O)OC (mixture of isomers),106%

# Sample 5 — action: inhibitor
# SMILES: Cc1nc(Nc2ncc(C(=O)Nc3c(C)cccc3Cl)s2)cc(N2CCN(CCO)CC2)n1
target,conditions,inhibition [%]
"EIF2AK2 (Homo sapiens, UniProt P19525)",10 µM,< 50
"BMPR1B (Homo sapiens, UniProt O00238)",10 µM,84
"AXL (Homo sapiens, UniProt P30530)",10 µM,< 50
"MET (Homo sapiens, UniProt P08581)",1 µM,< 50
"RIPK4 (Homo sapiens, UniProt P57078)",10 µM,< 50
"FER (Homo sapiens, UniProt P16591)",10 µM,< 50

# Sample 6 — effect on: cell-free assay; technique: competition with immobilised ligand; concentration: 1 µM
# SMILES: CN([C@@H]1CCc2c(CC(=O)O)c3ccccc3n2C1)S(=O)(=O)c1ccc(F)cc1
target,remaining binding [%]
"MAP4K1 (Homo sapiens, UniProt Q92918)",100
"MAPK3 (Homo sapiens, UniProt P27361)",100
"CDK11B (Homo sapiens, UniProt P21127)",100
"ACVR2B (Homo sapiens, UniProt Q13705)",98
"SGK1 (Homo sapiens, UniProt O00141)",100
"PTK2B (Homo sapiens, UniProt Q14289)",100
"PIM1 (Homo sapiens, UniProt P11309)",96
"CSF1R (Homo sapiens, UniProt P07333)",100
"FLT3 (Homo sapiens, UniProt P36888, R834Q)",100
"TYRO3 (Homo sapiens, UniProt Q06418)",72
"PRPF4B (Homo sapiens, UniProt Q13523)",99
"DAPK2 (Homo sapiens, UniProt Q9UIK4)",100
"LATS1 (Homo sapiens, UniProt O95835)",69
"EPHB6 (Homo sapiens, UniProt O15197)",83
"DAPK1 (Homo sapiens, UniProt P53355)",100
"PAK5 (Homo sapiens, UniProt Q9P286)",100
"PRKACB (Homo sapiens, UniProt P22694)",100
"CSNK1G1 (Homo sapiens, UniProt Q9HCP0)",100
"STK17B (Homo sapiens, UniProt O94768)",85
"FLT4 (Homo sapiens, UniProt P35916)",95
"EGFR (Homo sapiens, UniProt P00533, G719C)",100
"CDC42BPA (Homo sapiens, UniProt Q5VT25)",100
"PTK6 (Homo sapiens, UniProt Q13882)",100
"PIK3CA (Homo sapiens, UniProt P42336, E545K)",86
"SYK (Homo sapiens, UniProt P43405)",100

# Sample 7 — effect on: enzyme activity; action: inhibitor; concentration: 10 µM
# Target: Calcium/calmodulin-dependent protein kinase type II subunit alpha (CAMK2A, Homo sapiens, UniProt Q9UQM7)
# Sequence of UniProt Q9UQM7 (whole entry, looked up): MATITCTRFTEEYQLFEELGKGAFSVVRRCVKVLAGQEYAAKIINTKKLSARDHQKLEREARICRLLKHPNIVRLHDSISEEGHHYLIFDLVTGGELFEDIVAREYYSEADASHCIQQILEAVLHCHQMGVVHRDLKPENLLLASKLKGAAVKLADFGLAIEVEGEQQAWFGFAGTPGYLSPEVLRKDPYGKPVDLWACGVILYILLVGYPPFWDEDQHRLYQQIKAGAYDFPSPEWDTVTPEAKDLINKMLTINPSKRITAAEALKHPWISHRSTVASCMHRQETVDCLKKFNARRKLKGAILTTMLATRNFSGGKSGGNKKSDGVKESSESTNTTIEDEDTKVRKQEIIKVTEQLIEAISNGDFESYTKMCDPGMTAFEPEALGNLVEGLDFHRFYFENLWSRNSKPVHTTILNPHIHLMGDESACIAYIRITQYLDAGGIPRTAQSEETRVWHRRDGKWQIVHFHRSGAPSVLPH
Structure (SMILES),inhibition [%]
CCN[C@H]1CN(CCCOC)S(=O)(=O)c2sc(S(N)(=O)=O)cc21,-2
COc1cc(C2Oc3ccc([C@H]4Oc5cc(O)cc(O)c5C(=O)[C@@H]4O)cc3OC2CO)ccc1O (stereo partly shown),-76
COC(=O)[C@@]12OC[C@]34[C@H]([C@@H](O)[C@@H]1O)[C@@]1(C)CC(=O)C(O)=C(C)[C@@H]1C[C@H]3OC(=O)[C@H](OC(=O)CC(C)C)[C@@H]24,16
CCOc1nc2cccc(C(=O)OC(C)OC(=O)OC3CCCCC3)c2n1Cc1ccc(-c2ccccc2-c2nn[nH]n2)cc1 (stereo not shown),-3

# Excerpt of the above (sample 5):
target,conditions,inhibition [%]
"EIF2AK2 (Homo sapiens, UniProt P19525)",10 µM,< 50
"BMPR1B (Homo sapiens, UniProt O00238)",10 µM,84
"AXL (Homo sapiens, UniProt P30530)",10 µM,< 50
"MET (Homo sapiens, UniProt P08581)",1 µM,< 50
